Published values from different studies.
Numbered parts are unrelated; each lists some results of a single study. Values joined by “and” are separate records of one study, mostly repeats; a detail may differ.
UniProt P37173, sequence (whole entry, looked up): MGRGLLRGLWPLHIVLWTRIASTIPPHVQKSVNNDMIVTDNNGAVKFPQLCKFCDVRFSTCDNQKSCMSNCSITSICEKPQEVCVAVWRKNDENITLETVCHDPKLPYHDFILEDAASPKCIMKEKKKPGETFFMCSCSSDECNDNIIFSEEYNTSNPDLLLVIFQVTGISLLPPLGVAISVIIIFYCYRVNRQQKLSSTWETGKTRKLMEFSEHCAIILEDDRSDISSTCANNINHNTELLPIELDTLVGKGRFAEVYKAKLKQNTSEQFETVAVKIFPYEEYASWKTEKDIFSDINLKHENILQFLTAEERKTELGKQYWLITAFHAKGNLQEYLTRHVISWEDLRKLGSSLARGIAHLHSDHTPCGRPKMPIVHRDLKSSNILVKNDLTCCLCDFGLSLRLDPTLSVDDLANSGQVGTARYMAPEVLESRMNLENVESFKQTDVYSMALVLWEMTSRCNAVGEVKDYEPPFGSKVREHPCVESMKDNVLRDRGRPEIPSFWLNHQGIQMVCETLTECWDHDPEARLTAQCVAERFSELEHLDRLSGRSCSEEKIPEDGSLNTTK
UniProt Q9BXA7, sequence (whole entry, looked up): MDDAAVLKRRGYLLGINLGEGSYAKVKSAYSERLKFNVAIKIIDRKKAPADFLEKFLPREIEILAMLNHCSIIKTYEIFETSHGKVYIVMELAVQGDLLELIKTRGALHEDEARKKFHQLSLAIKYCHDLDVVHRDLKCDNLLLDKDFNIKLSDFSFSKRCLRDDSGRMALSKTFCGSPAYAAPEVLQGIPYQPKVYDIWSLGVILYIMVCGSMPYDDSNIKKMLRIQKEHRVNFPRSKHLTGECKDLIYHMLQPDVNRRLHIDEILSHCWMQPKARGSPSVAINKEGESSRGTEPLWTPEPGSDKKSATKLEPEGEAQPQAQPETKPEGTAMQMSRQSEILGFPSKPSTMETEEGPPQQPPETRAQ
UniProt P11802, sequence (whole entry, looked up): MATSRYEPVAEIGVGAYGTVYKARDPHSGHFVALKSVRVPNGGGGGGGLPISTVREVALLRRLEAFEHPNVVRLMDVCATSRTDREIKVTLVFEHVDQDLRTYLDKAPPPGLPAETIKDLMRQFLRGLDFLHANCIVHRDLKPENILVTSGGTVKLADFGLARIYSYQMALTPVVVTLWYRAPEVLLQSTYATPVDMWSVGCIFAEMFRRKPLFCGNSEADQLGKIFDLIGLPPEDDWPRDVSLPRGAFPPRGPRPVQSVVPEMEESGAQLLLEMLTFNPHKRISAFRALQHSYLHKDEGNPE
UniProt P29597, sequence (whole entry, looked up): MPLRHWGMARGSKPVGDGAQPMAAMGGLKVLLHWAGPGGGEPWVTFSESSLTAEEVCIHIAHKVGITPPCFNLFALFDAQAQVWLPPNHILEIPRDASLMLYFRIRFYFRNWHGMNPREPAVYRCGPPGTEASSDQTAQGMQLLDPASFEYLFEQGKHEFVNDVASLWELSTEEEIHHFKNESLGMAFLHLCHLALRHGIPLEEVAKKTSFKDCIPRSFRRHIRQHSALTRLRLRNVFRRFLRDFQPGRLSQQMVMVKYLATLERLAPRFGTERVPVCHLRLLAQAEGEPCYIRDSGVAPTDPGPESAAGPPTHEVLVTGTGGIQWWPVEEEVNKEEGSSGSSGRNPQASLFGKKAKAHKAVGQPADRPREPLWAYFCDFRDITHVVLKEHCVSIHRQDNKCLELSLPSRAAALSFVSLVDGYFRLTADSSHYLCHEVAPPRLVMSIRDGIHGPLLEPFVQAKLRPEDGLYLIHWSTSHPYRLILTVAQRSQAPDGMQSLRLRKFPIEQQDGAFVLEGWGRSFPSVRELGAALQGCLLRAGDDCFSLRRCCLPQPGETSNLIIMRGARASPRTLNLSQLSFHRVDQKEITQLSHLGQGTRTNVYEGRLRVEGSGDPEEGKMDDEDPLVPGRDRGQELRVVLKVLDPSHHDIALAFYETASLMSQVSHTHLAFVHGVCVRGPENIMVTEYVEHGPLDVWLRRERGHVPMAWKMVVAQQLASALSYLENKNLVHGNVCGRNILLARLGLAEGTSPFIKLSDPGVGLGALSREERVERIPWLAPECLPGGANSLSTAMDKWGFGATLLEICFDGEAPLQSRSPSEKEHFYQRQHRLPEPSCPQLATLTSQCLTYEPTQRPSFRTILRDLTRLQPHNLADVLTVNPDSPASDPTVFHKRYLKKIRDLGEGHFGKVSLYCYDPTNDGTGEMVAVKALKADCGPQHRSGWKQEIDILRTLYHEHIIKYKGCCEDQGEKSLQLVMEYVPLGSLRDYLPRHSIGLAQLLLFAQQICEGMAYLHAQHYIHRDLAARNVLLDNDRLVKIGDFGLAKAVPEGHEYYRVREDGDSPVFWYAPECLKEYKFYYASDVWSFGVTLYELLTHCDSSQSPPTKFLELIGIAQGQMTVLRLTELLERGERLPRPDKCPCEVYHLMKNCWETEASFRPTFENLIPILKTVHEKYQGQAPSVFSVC
UniProt P35626, sequence (whole entry, looked up): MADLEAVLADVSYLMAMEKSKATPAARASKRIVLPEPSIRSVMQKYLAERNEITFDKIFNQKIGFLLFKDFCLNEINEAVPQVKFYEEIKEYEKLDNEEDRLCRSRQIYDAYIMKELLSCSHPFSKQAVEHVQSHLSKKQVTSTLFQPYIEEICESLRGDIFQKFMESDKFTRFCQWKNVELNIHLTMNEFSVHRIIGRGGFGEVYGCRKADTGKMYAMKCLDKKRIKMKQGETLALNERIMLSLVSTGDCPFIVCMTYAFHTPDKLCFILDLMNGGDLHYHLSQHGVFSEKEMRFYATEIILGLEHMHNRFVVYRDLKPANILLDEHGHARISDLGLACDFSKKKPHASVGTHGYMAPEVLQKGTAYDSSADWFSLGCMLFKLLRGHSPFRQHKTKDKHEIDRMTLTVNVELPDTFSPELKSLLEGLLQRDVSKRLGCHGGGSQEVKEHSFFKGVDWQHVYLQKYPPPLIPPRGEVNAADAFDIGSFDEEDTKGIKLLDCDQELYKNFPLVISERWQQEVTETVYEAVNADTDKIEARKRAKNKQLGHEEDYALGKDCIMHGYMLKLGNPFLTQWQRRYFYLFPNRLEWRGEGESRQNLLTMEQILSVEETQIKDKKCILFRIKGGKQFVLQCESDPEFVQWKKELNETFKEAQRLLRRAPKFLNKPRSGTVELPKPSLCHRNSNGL
UniProt O95747, sequence (whole entry, looked up): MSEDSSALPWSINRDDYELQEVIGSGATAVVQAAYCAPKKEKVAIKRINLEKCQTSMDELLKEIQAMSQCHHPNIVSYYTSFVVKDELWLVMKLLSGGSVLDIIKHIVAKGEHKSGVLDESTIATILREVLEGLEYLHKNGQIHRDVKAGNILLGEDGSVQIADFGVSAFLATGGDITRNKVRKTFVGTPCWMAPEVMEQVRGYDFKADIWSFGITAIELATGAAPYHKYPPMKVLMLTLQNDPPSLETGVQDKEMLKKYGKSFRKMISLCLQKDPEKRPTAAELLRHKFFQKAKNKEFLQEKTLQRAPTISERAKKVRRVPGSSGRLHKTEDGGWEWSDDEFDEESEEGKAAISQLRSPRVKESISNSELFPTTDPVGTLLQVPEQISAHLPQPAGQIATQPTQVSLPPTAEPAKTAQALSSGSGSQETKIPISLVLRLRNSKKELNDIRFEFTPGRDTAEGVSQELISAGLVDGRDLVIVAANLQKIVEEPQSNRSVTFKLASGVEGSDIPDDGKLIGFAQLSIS
UniProt Q8WTQ7, sequence (whole entry, looked up): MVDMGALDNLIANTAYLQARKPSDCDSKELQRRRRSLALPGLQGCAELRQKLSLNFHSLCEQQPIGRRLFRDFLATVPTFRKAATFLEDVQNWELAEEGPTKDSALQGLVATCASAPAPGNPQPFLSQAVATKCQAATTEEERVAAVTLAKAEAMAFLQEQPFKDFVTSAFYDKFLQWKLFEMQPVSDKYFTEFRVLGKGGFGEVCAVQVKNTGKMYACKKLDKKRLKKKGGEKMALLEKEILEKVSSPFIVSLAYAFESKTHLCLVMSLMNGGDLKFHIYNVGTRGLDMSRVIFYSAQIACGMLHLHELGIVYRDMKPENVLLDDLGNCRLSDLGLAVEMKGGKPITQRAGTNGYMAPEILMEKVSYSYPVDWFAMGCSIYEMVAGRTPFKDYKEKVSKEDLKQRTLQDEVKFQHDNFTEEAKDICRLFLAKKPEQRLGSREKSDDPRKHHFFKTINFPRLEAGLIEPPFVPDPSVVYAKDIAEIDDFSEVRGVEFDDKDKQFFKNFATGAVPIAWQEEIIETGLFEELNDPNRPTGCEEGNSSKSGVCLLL
UniProt Q99759, sequence (whole entry, looked up): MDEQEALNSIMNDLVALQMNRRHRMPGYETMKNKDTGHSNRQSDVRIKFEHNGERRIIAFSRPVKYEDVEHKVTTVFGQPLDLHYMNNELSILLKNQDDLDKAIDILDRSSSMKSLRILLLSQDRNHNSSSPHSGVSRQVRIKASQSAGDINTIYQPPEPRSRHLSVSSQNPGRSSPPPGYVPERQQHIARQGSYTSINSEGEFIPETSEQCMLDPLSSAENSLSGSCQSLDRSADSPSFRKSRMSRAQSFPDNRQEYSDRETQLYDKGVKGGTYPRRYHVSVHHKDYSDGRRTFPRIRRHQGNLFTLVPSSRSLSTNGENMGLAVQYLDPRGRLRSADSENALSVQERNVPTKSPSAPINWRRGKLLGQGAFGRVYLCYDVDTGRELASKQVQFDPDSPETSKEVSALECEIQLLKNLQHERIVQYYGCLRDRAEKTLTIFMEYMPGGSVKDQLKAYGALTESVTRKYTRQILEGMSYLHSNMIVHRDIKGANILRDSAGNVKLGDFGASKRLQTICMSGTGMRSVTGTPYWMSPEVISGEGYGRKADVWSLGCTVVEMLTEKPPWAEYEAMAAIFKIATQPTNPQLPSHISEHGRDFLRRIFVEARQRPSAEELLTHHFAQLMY

Set 1 — technique: protein-binding microarray; molecule type: hairpin DNA; sample: in vitro; tested at: not given; baseline: not given; reading: higher = stronger binding
Target: Interferon regulatory factor 1, DNA-binding domain (IRF1, Homo sapiens, UniProt P10914, residues 1-114)
Notes: whole hairpin DNA, median over replicate spots
Residues (chain): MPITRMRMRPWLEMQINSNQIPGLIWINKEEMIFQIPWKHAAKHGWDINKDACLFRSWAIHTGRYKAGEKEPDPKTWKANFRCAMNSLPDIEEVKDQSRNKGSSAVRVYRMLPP
With `GAGGCCCGAAAGTGAATCGCCTCCTGGCGATTCACTTTCGGGCCTCACAC` the median fluorescence was 529 a.u.
`GAGGCCCGACGGCGAAACGCCTCCTGGCGTTTCGCCGTCGGGCCTCACAC` has a median fluorescence of 534 a.u.
`GAGGCCCGAAAACGAAACGCCTCCTGGCGTTTCGTTTTCGGGCCTCACAC` has a median fluorescence of 1770 a.u.
The median fluorescence of `GAGGCCTGAAAGTGAAACGCCTCCTGGCGTTTCACTTTCAGGCCTCACAC` is reported as 1840 a.u.
For `GAGGCCCGAAAGCGAAACGCCTCCTGGCGTTTCGCTTTCGGGCCTCACAC (5mC at 33)`, the median fluorescence was 1160 a.u.
The median fluorescence of `GAGGCCCGACGGTGAAACGCCTCCTGGCGTTTCACCGTCGGGCCTCACAC (5mC at 10)` is reported as 558 a.u.
`GAGGCCCAAAAGCGAAACGCCTCCTGGCGTTTCGCTTTTGGGCCTCACAC` gave a median fluorescence of 1360 a.u.
`GAGGCCCGACGGCGAAACGCCTCCTGGCGTTTCGCCGTCGGGCCTCACAC (5mC at 10)` has a median fluorescence of 496 a.u.

Set 2 — Structure (SMILES): CNc1cc2c(Nc3cccc(Br)c3)ncnc2cn1; observed: enzyme activity; action: inhibitor; tested at: 0.5 µM; baseline: control
For Serine/threonine-protein kinase Chk2 (CHEK2, Homo sapiens, UniProt O96017): remaining activity read 85.7%.
The remaining activity was 97.9% (Calcium/calmodulin-dependent protein kinase type II subunit delta (CAMK2D, Homo sapiens, UniProt Q13557)).
For Calcium/calmodulin-dependent protein kinase kinase 2 (CAMKK2, Homo sapiens, UniProt Q96RR4): remaining activity read 80%.
For cGMP-dependent protein kinase 1, isoform beta (PRKG1, Homo sapiens, UniProt Q13976): remaining activity read 107%.
It gave 105% for remaining activity (TGF-beta receptor type-2 (TGFBR2, Homo sapiens, UniProt P37173)).
For Protein kinase C beta type, isoform beta-I (PRKCB, Homo sapiens, UniProt P05771): remaining activity read 95.3%.
The remaining activity was 88.3% (Serine/threonine-protein kinase OSR1 (OXSR1, Homo sapiens, UniProt O95747)).
For G protein-coupled receptor kinase 3 (GRK3, Homo sapiens, UniProt P35626): remaining activity read 101%.
Inhibitor of nuclear factor kappa-B kinase subunit epsilon (IKBKE, Homo sapiens, UniProt Q14164) — remaining activity: 87.1%.
The remaining activity was 31.8% (Serine/threonine-protein kinase 10 (STK10, Homo sapiens, UniProt O94804)).
Mitogen-activated protein kinase 9 (MAPK9, Homo sapiens, UniProt P45984) — remaining activity: 96.5%.
For cAMP-dependent protein kinase catalytic subunit alpha (PRKACA, Homo sapiens, UniProt P17612): remaining activity read 104%.
Inhibitor of nuclear factor kappa-B kinase subunit beta (IKBKB, Homo sapiens, UniProt O14920) — remaining activity: 98.2%.
It gave 101% for remaining activity (Protein kinase C alpha type (PRKCA, Homo sapiens, UniProt P17252)).
It gave 82.9% for remaining activity (Cyclin-dependent kinase 5, with p25 (CDK5, Homo sapiens, UniProt Q00535)).
Death-associated protein kinase 2 (DAPK2, Homo sapiens, UniProt Q9UIK4) — remaining activity: 136%.
For STE20/SPS1-related proline-alanine-rich protein kinase (STK39, Homo sapiens, UniProt Q9UEW8): remaining activity read 94%.
Death-associated protein kinase 1 (DAPK1, Homo sapiens, UniProt P53355) — remaining activity: 80.5%.
It gave 81.9% for remaining activity (Tyrosine-protein kinase Lyn, isoform B (LYN, Homo sapiens, UniProt P07948)).
The remaining activity was 98.3% (Serine/threonine-protein kinase STK11 (STK11, Homo sapiens, UniProt Q15831)).
For Cyclin-dependent kinase 4, with cyclin D1 (CDK4, Homo sapiens, UniProt P11802): remaining activity read 104%.
For Mitogen-activated protein kinase kinase kinase 3 (MAP3K3, Homo sapiens, UniProt Q99759): remaining activity read 73.3%.
The remaining activity was 88.2% (Serine/threonine-protein kinase Nek2 (NEK2, Homo sapiens, UniProt P51955)).

Set 3 — observed: cell-free assay; technique: competition with immobilised ligand; tested at: 1 µM
Structure (SMILES): CCc1ccccc1C(=O)Nc1n[nH]c2c(C)c(F)c(C3C(C#N)=C(C)N(C)C(C)=C3C#N)cc12
It gave 82% for remaining binding (TGF-beta receptor type-2 (TGFBR2, Homo sapiens, UniProt P37173)).
The remaining binding was 100% (Mitogen-activated protein kinase kinase kinase 10 (MAP3K10, Homo sapiens, UniProt Q02779)).
Calcium/calmodulin-dependent protein kinase kinase 1 (CAMKK1, Homo sapiens, UniProt Q8N5S9) — remaining binding: 100%.
The remaining binding was 86% (3-phosphoinositide-dependent protein kinase 1 (PDPK1, Homo sapiens, UniProt O15530)).
The remaining binding was 100% (Non-receptor tyrosine-protein kinase TYK2, JH2 (TYK2, Homo sapiens, UniProt P29597)).
The remaining binding was 72% (Tyrosine-protein kinase ABL1, phosphorylated (ABL1, Homo sapiens, UniProt P00519, T315I)).
The remaining binding was 100% (Phosphatidylinositol 4,5-bisphosphate 3-kinase catalytic subunit alpha isoform (PIK3CA, Homo sapiens, UniProt P42336)).
Mitogen-activated protein kinase 10 (MAPK10, Homo sapiens, UniProt P53779) — remaining binding: 92%.
High affinity nerve growth factor receptor (NTRK1, Homo sapiens, UniProt P04629) — remaining binding: 97%.
The remaining binding was 54% (Rhodopsin kinase GRK7 (GRK7, Homo sapiens, UniProt Q8WTQ7)).
For Dual specificity mitogen-activated protein kinase kinase 3 (MAP2K3, Homo sapiens, UniProt P46734): remaining binding read 97%.
For Mitogen-activated protein kinase 9 (MAPK9, Homo sapiens, UniProt P45984): remaining binding read 67%.
NUAK family SNF1-like kinase 2 (NUAK2, Homo sapiens, UniProt Q9H093) — remaining binding: 40%.
Ribosomal protein S6 kinase alpha-5, N-terminal kinase domain (RPS6KA5, Homo sapiens, UniProt O75582) — remaining binding: 1%.
Serine/threonine-protein kinase D1 (PRKD1, Homo sapiens, UniProt Q15139) — remaining binding: 100%.
For Testis-specific serine/threonine-protein kinase 1 (TSSK1B, Homo sapiens, UniProt Q9BXA7): remaining binding read 95%.
The remaining binding was 98% (Proto-oncogene tyrosine-protein kinase ROS (ROS1, Homo sapiens, UniProt P08922)).
G protein-coupled receptor kinase 4 (GRK4, Homo sapiens, UniProt P32298) — remaining binding: 100%.

Single results of other studies
With `COC(=O)c1cc(Cl)ccc1N(C)C(=O)c1ccn2ncc(-c3ccc(C(N)=O)cc3)c2c1` the oocyst shedding was 3.45 log oocysts/g feces (Cryptosporidium parvum; qPCR; IFN-γ knockout mouse, feces; dose not given).
The spheroid area of `CC(C)(C(=O)O)[C@H](NC(=O)Cc1cccc(I)c1)c1ccc2oc(=O)[nH]c2c1` is reported as 1.39e+08 a.u. and 1.42e+08 a.u. and 1.55e+08 a.u. and 1.76e+08 a.u. and 1.51e+08 a.u. and 1.45e+08 a.u. (A375; Incucyte 3D growth; 30 µM, 504.52 h; higher = more growth).
`Ic1ccc(Nc2nc(NCCN3CCOCC3)nc(N3CCOCC3)n2)cc1` gave a remaining activity of 1.09 and 1.11 and 1.21 and 1.19 (lysosomal β-galactosidase (human, wild type); healthy dermal fibroblasts; 1 µM, unit not given; baseline: DMSO).

Repeated from above (set 2):
The remaining activity was 98.3% (Serine/threonine-protein kinase STK11 (STK11, Homo sapiens, UniProt Q15831)).
It gave 81.9% for remaining activity (Tyrosine-protein kinase Lyn, isoform B (LYN, Homo sapiens, UniProt P07948)).
The remaining activity was 88.2% (Serine/threonine-protein kinase Nek2 (NEK2, Homo sapiens, UniProt P51955)).
For cAMP-dependent protein kinase catalytic subunit alpha (PRKACA, Homo sapiens, UniProt P17612): remaining activity read 104%.
